Measurements from different studies.
Compare with care: the assays were run in different laboratories. Values joined by “and” are separate records of one study, mostly repeats; a detail may differ.
GBA1 R534H: Lysosomal acid glucosylceramidase (GBA1, Homo sapiens, UniProt P04062, R534H)
CFTR del508-508: Cystic fibrosis transmembrane conductance regulator (CFTR, Homo sapiens, UniProt P13569, del508-508)

| Compound | target or system | assay | test system | setting | scale | measurement | value |
| --- | --- | --- | --- | --- | --- | --- | --- |
| OC[C@@H]1[C@@H](O)[C@H](O)[C@@H](O)CN1CCCCCOCc1ccc(-c2ccccc2)c(C(F)(F)F)c1 | GBA1 R534H | inhibitor, 4MU-β-D-glucopyranoside | – | together with: 4MU-β-D-glucopyranoside | – | IC50 | 0.1 µM |
| CCN(CC)C(CO)c1cccc2c(C)c(C)oc12 (stereo not drawn) | LPAR1 (Homo sapiens, UniProt Q92633, W271F) | Gi activation, agonist, NanoBiT G-protein dissociation | HEK293T | W271F mutant | – | EC50 | 0.02 µM |
| CCOC(=O)c1c(S(=O)(=O)Nc2ccc(C(C)(C)C)cc2)c(-c2ccccc2)n(-c2ccccc2)c1C | CFTR del508-508 | cell-based | – | – | – | EC50 | 0.26 µM |
| COc1cc(C2C(NC(=O)c3ccc(NC(=O)OC(C)(C)C)cc3)(C(=O)O)C(c3ccc(OC(=O)c4cccs4)c(OC)c3)C2(NC(=O)c2ccc(NC(=O)OC(C)(C)C)cc2)C(=O)O)ccc1OC(=O)c1cccs1 (stereo not drawn) | GLP1R (Homo sapiens, UniProt P43220, R299A) | cAMP, agonist | – | – | – | EC50 | 0.105 µM |
| Cl.[Cl][Ru-4]123([n+]4ccccc4-c4cccc([n+]41)-c1cccc[n+]12)[n+]1ccc(-c2ccccc2)c2ccc4c(-c5ccccc5)cc[n+]3c4c21 | DNA gyrase (gyrA/gyrB, Escherichia coli, UniProt P0AES4+P0AES6) | supercoiling inhibition | – | – | – | EC50 | 35.1 µM |
| CC(C)Oc1cc(Cl)ccc1CNc1cc(-c2ccccc2)nc2ncnn12 | GPR3 (Homo sapiens, UniProt P46089, L128A) | cAMP level, agonist | – | FLAG-6xHis tagged | – | EC50 | 0.0372 µM |
| O=C1C[C@H](c2nc(-c3ccc(F)c4cn[nH]c34)no2)CCCN1c1ccc(F)cc1 (racemic) | CNR2 (Homo sapiens, UniProt P34972, F94A) | cAMP, agonist, luciferase | – | – | – | EC50 | 0.813 µM |
| Cc1nn(-c2cccc(N)c2)c(=O)c2cnc(Nc3ccc(N4CCNCC4)cc3)nc12 | AKT2 (Homo sapiens, UniProt P31751) | SelectScreen kinase | – | – | – | IC50 | > 10 µM |
| CC(NS(=O)(=O)c1ccc(CCC(=O)N2CCN(C)CC2)cc1)c1ccccc1 (stereo not drawn) | Trypanosoma cruzi | reporter mRNA translation, inhibitor, refers to: Renilla luciferase mRNA | cell-free extract | concentration not given, test 1 | baseline: positive over negative control | translation activity | 107% and 108% |
| CNc1ncnc2c1ncn2C1OC(CO)C(O)C1O (stereo not drawn) | ADORA3 (Homo sapiens, UniProt P0DMS8, L264F) | G protein activation, agonist | – | – | – | EC50 | 1.1 µM |
| O=C(O)CCC(=O)O | Sucnr1 (Mus musculus, UniProt Q99MT6) | inositol phosphate, agonist | – | – | – | EC50 | 4.59 µM |
| O=C(Cc1ccc(OCc2ccccc2)cc1)NC1(C(=O)O)CCN(C(=O)c2ccc(-c3cccc(Cl)c3)cc2)CC1 | LPAR2 (Homo sapiens, UniProt Q9HBW0) | cAMP, agonist, luciferase | – | – | – | EC50 | > 10 µM |
| CCOC(=O)c1c(S(=O)(=O)Nc2ccc([N+](=O)[O-])cc2)c(-c2ccccc2)n(-c2ccccc2)c1C | CFTR del508-508 | ion flux, activator | – | – | – | EC50 | 1.21 µM |
| COc1ccc(C2(C(=O)N3CCC(Nc4nc5ccccc5c(=O)[nH]4)CC3)CC2)cc1 | MRGPRD (Homo sapiens, UniProt Q8TDS7, N157A) | miniGq recruitment, BRET1 | – | N157A mutant | – | EC50 | 0.0457 µM |
| Cc1cc(=O)[nH]c(-n2nc(-c3cccs3)cc2NC(=O)C2(c3ccc(Cl)cc3)CCCC2)n1 | CFTR del508-508 | ion flux, activator | – | – | – | EC50 | 3.11 µM |
| OC[C@@H]1[C@@H](O)[C@H](O)[C@@H](O)CN1CCCCCOCc1ccc(-c2ccc3c(c2)OCCCO3)cc1 | GBA1 R534H | inhibitor, 4MU-β-D-glucopyranoside | – | together with: 4MU-β-D-glucopyranoside | – | IC50 | 3 µM |
| CCOC(=O)c1c(S(=O)(=O)Nc2ccc(C(F)(F)F)cc2)c(-c2ccccc2)n(-c2ccccc2)c1C | CFTR del508-508 | plasma membrane density, corrector, PM-ELISA | – | – | – | EC50 | 0.71 µM |
| CSCC[C@H](NC(=O)[C@H](CC(C)C)NC(=O)CNC(=O)[C@H](Cc1ccccc1)NC(=O)[C@H](Cc1ccccc1)NC(=O)[C@@H](N)CCC(N)=O)C(N)=O | TACR1 (Homo sapiens, UniProt P25103, Y287H) | agonist | – | concentration not given | – | EC50 | 0.501 µM |

Repeated from above:
| Compound | target or system | assay | test system | setting | scale | measurement | value |
| --- | --- | --- | --- | --- | --- | --- | --- |
| CCN(CC)C(CO)c1cccc2c(C)c(C)oc12 (stereo not drawn) | LPAR1 (Homo sapiens, UniProt Q92633, W271F) | Gi activation, agonist, NanoBiT G-protein dissociation | HEK293T | W271F mutant | – | EC50 | 0.02 µM |
| COc1cc(C2C(NC(=O)c3ccc(NC(=O)OC(C)(C)C)cc3)(C(=O)O)C(c3ccc(OC(=O)c4cccs4)c(OC)c3)C2(NC(=O)c2ccc(NC(=O)OC(C)(C)C)cc2)C(=O)O)ccc1OC(=O)c1cccs1 (stereo not drawn) | GLP1R (Homo sapiens, UniProt P43220, R299A) | cAMP, agonist | – | – | – | EC50 | 0.105 µM |
| COc1ccc(C2(C(=O)N3CCC(Nc4nc5ccccc5c(=O)[nH]4)CC3)CC2)cc1 | MRGPRD (Homo sapiens, UniProt Q8TDS7, N157A) | miniGq recruitment, BRET1 | – | N157A mutant | – | EC50 | 0.0457 µM |
